{"data": "Published values pooled from the literature", "note": "Every numbered part comes from another study and shows a few of its results, in no order. Positions count from the first letter of the parent shown."}
{"data": "Study 1", "target": "Sal-like protein 4, full length isoform B (SALL4, Homo sapiens, UniProt Q9UJQ4-2, residues 1-616)", "method": "universal PBM", "molecule type": "double-stranded DNA, one strand shown", "medium": "in vitro", "concentration": "not given", "setting": "8-mer, flanks averaged, mean of replicates", "direction": "higher = stronger binding"}
{"Sequence": "CGCATTGC", "E-score": -0.06}
{"Sequence": "ACCGCGGC", "E-score": -0.331}
{"Sequence": "ATTGCTGA", "E-score": 0.158}
{"Sequence": "GACCAAAA", "E-score": 0.22}
{"Sequence": "GAGACGCC", "E-score": -0.204}
{"Sequence": "AGTTATTA", "E-score": 0.426}
{"Sequence": "CTAACATC", "E-score": 0.0312}
{"Sequence": "CGGGGAGA", "E-score": -0.402}
{"Sequence": "GTCTACCA", "E-score": -0.104}
{"Sequence": "GCGAGTAA", "E-score": 0.0213}
{"Sequence": "CTATGTGA", "E-score": 0.0725}
{"Sequence": "GCGTATCC", "E-score": -0.247}
{"Sequence": "GTCGCATA", "E-score": 0.167}
{"Sequence": "CGGGTGTA", "E-score": -0.167}
{"Sequence": "AGGGCCAG", "E-score": -0.245}
{"Sequence": "CTTGCCAC", "E-score": 0.0241}
{"Sequence": "GCTCTCCC", "E-score": -0.192}
{"Sequence": "ATCAATTA", "E-score": 0.316}
{"Sequence": "ACGTCAAT", "E-score": 0.0671}
{"Sequence": "CGTAGAGC", "E-score": -0.236}
{"Sequence": "CTAGGCAC", "E-score": -0.158}
{"data": "Study 2", "target": "Centromere-binding protein 1, full length, N-terminal tag (CBF1, Saccharomyces cerevisiae, UniProt P17106, residues 1-351)", "method": "protein-binding microarray", "molecule type": "double-stranded DNA, one strand shown", "medium": "in vitro", "concentration": "0.8 µM", "setting": "whole 60-bp probe, no competitor", "direction": "higher = stronger binding", "UniProt P17106, sequence (whole entry, looked up)": "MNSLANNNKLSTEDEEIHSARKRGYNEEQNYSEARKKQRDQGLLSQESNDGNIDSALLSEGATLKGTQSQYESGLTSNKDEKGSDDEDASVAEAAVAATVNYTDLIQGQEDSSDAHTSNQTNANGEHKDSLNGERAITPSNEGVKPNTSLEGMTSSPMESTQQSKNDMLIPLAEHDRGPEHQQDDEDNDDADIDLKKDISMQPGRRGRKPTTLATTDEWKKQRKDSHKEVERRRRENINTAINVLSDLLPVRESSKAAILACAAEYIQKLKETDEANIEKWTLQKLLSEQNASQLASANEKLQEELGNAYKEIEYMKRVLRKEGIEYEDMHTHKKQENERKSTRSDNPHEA"}
{"Sequence": "CTATTATATTTGAATCTGGTGATAGCACCGAGGTTCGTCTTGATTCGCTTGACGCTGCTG", "fluorescence intensity": "485 a.u."}
{"Sequence": "CTAATGTTAGTAGGTCACGAATTCTTTAATTTTTTCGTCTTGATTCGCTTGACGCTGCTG", "fluorescence intensity": "895 a.u."}
{"Sequence": "CTACCAGATATTTACCACGCTAGATTTGCATAGTTCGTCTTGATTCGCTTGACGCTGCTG", "fluorescence intensity": "509 a.u."}
{"Sequence": "GAAGTGTCTGTACATGATGTACTCGGTCAAAAATAGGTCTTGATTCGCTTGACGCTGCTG", "fluorescence intensity": "541 a.u."}
{"Sequence": "CTATTGCCAGCCCGTCATCAGTAGGACCCTTTTTTCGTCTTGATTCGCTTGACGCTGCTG", "fluorescence intensity": "539 a.u."}
{"Sequence": "GAACCATACCATCCTCACGTTAATGAATCATTTTAGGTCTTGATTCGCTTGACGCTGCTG", "fluorescence intensity": "567 a.u."}
{"Sequence": "CTACGATGGTTAGGCTTCGTGGGGTAAAAGTCGTTCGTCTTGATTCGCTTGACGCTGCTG", "fluorescence intensity": "493 a.u."}
{"Sequence": "CTACTGATATTTTTTGACGTCACTTAGTAAGCATTCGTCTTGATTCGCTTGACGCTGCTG", "fluorescence intensity": "535 a.u."}
{"Sequence": "CTAAAGCACGGCGGACGTGTCACCCGGACCGAATTCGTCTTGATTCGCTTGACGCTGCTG", "fluorescence intensity": "610 a.u."}
{"Sequence": "CTATATTGTGAACATCATGACAAAACGAAATGATTCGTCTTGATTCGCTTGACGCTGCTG", "fluorescence intensity": "556 a.u."}
{"Sequence": "GAAAGCCACTCTCGTCACGGCTCCGTTAAAATGTAGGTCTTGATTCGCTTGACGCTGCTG", "fluorescence intensity": "577 a.u."}
{"Sequence": "GAAAACCGCATTGTGACTGCGTACTTTAAACGATAGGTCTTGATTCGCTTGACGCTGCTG", "fluorescence intensity": "547 a.u."}
{"Sequence": "GAATTTAAAGTTAACATCACCGCTGAATTACATTAGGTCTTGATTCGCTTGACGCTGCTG", "fluorescence intensity": "491 a.u."}
{"Sequence": "GAAAAAAAAAAAAAACATGTGGTGATGAAAACGTAGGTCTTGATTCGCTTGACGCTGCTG", "fluorescence intensity": "863 a.u."}
{"Sequence": "GAAATTAATTGATATCATCAGAATTTGACGAAATAGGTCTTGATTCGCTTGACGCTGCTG", "fluorescence intensity": "519 a.u."}
{"Sequence": "GAAAGGGTAACATATTATCACGTGCAGCCCAGGTAGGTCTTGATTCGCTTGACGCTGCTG", "fluorescence intensity": "10100 a.u."}
{"Sequence": "GAAAGCTAGGGAGCTCACCCGCGATATTCTGTATAGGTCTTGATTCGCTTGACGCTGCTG", "fluorescence intensity": "486 a.u."}
{"Sequence": "GAACTCGCCCTCACACACGTTATAGTTATGTCGTAGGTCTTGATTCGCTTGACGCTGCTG", "fluorescence intensity": "568 a.u."}
{"Sequence": "CTAGGGTTTTTTGTTCACGCGGGCCGCAGTTGTTTCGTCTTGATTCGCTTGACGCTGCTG", "fluorescence intensity": "600 a.u."}
{"Sequence": "CTATTTCTTACGCGTTGCGTGTAAAACATCCTCTTCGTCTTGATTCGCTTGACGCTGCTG", "fluorescence intensity": "496 a.u."}
{"Sequence": "GAATTACATATTTATCACGACTGTTTACGTATCTAGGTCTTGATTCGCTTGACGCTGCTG", "fluorescence intensity": "571 a.u."}
{"Sequence": "GAAGGGACTCCTCGCTTCACCAGATCTTATGTATAGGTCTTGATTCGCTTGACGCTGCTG", "fluorescence intensity": "535 a.u."}
{"Sequence": "CTAAGCGCTGCGTAAAACATCAGAGACGTATGTTTCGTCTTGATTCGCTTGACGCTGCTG", "fluorescence intensity": "484 a.u."}
{"data": "Study 3", "target": "Protein max, full length (MAX, Homo sapiens, UniProt P61244-2, residues 1-151)", "method": "protein-binding microarray", "molecule type": "double-stranded DNA, one strand shown", "medium": "in vitro", "concentration": "not given", "setting": "k-mer, scored over probes, only values ≥0.25", "direction": "higher = stronger binding"}
{"Sequence": "ATCAGCAT", "E-score": 0.259}
{"Sequence": "CGGGCACA", "E-score": 0.263}
{"Sequence": "AAATGTGA", "E-score": 0.286}
{"Sequence": "ACGAGACA", "E-score": 0.288}
{"Sequence": "GTGACTGA", "E-score": 0.292}
{"Sequence": "CATGGCGG", "E-score": 0.372}
{"Sequence": "AGCTCACG", "E-score": 0.312}
{"Sequence": "ACACGACC", "E-score": 0.261}
{"Sequence": "ACGAGGGA", "E-score": 0.344}
{"Sequence": "ACGTTCCT", "E-score": 0.269}
{"Sequence": "CATCTGCA", "E-score": 0.264}
{"Sequence": "CCACGAGA", "E-score": 0.388}
{"Sequence": "GGGCGGGA", "E-score": 0.256}
{"Sequence": "CGAGGTCA", "E-score": 0.281}
{"Sequence": "AACCACGA", "E-score": 0.305}
{"Sequence": "CATGCCGG", "E-score": 0.364}
{"Sequence": "ATGCTTTC", "E-score": 0.323}
{"Sequence": "CTCATGGC", "E-score": 0.371}
{"Sequence": "GTGGGACA", "E-score": 0.343}
{"Sequence": "ACGAGACG", "E-score": 0.258}
{"Sequence": "GTACACGA", "E-score": 0.33}
{"Sequence": "CGTGAAAC", "E-score": 0.304}
{"Sequence": "ACGTGAAT", "E-score": 0.304}
{"Sequence": "ATGTGACA", "E-score": 0.328}
{"Sequence": "CCACGCAC", "E-score": 0.395}
{"data": "Study 4", "target": "CCNA1, cyclin fold, Cln2 fusion (human)", "method": "yeast growth competition, sequencing", "medium": "yeast", "setting": "weak parent motif", "baseline": "not given", "direction": "higher = stronger binding", "parent": "PKN2 docking peptide (human); DSTVTKLDFDLEP; partner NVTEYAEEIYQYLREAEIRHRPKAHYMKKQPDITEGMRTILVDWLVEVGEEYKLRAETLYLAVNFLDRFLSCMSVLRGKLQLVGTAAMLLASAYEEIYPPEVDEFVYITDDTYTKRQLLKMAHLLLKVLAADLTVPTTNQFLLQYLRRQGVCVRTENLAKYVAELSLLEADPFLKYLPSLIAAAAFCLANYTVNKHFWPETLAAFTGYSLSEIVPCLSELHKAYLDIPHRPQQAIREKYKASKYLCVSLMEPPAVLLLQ"}
{"Substitution": "T3A", "normalised enrichment score": -0.204}
{"Substitution": "D10A", "normalised enrichment score": -0.479}
{"Substitution": "K6A", "normalised enrichment score": -0.115}
{"Substitution": "D8A", "normalised enrichment score": -0.296}
{"Substitution": "L11A", "normalised enrichment score": -0.063}
{"Substitution": "F9A", "normalised enrichment score": 0.0713}
{"Substitution": "D1A", "normalised enrichment score": 0.026}
{"data": "Study 5", "target": "ABI1, truncated, D143A, DHFR fusion (Arabidopsis thaliana)", "method": "DHFR PCA, deep sequencing", "medium": "yeast", "setting": "methotrexate growth selection, single substitutions", "together with": "(+)-ABA 0.11 µM", "baseline": "wild-type fitted maximum", "direction": "higher = stronger binding", "parent": "PYL1, truncated, DHFR fusion (Arabidopsis thaliana); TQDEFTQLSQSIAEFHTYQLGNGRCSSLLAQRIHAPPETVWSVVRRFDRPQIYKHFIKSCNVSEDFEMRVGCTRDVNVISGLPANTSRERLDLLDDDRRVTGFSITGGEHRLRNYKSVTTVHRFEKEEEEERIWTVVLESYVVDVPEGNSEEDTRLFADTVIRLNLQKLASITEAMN"}
{"Substitution": "N22C", "relative binding score": "15.6%"}
{"Substitution": "G21K", "relative binding score": "26.8%"}
{"Substitution": "R32V", "relative binding score": "51%"}
{"Substitution": "Q51Y", "relative binding score": "9.35%"}
{"Substitution": "F66G", "relative binding score": "22.1%"}
{"Substitution": "V118F", "relative binding score": "-4.45%"}
{"Substitution": "N114G", "relative binding score": "9.09%"}
{"Substitution": "I12L", "relative binding score": "0.92%"}
{"Substitution": "V161H", "relative binding score": "42.1%"}
{"Substitution": "Y141W", "relative binding score": "-5.62%"}
{"Substitution": "E109R", "relative binding score": "-3.8%"}
{"Substitution": "A84E", "relative binding score": "22%"}
{"Substitution": "T120P", "relative binding score": "-1.32%"}
{"Substitution": "R98V", "relative binding score": "-7.12%"}
{"Substitution": "V142E", "relative binding score": "11.6%"}
